Assay results from different studies.
Each line is one published result; not all experiments were run side by side. “And” joins repeats or separate records; there may be more than shown. ± gives the spread as reported.

Cn1cc(-c2nc(N[C@@H]3CCCC[C@@H]3N)c(F)c3c2C(=O)NC3)cn1  hemorrhagic adverse events (measured: Gastric haemorrhage; patients with relapsed or refractory AML; oral, dose not given, all doses): 9%
Cc1noc(C)c1Cn1cc(N2C(=O)CN(Cc3cccc(O)c3)C2=O)cn1  PCE proportion (CD-1 mouse, male, bone marrow; 1000 mg/kg/day, 24 h): 44.2%
CO[C@H]1C[C@@H]2CC[C@@H](C)[C@@](O)(O2)C(=O)C(=O)N2CCCC[C@H]2C(=O)O[C@H]([C@H](C)C[C@@H]2CC[C@@H](OC(=O)NCCOCCOCCOCCOCCOCCOCCOCCOCCC(=O)N3CCc4cc(Cn5nc(-c6ccc7oc(N)nc7c6)c6c(N)ncnc65)ccc4C3)[C@H](OC)C2)C[C@@H](O)[C@H](C)/C=C(\C)[C@@H](O)[C@@H](OC)C(=O)[C@H](C)C[C@H](C)/C=C/C=C/C=C/1C  AEs causing dose modification (phase 1 dose escalation; advanced solid tumour patients; intravenous, 10 mg weekly, any grade): 87.5%
CN(C)C1(CNC(=O)c2ccc3c(c2)CCN3C(=O)c2ccccc2)CCOCC1  volume of distribution (ICR mouse male, plasma; intraperitoneal, 30 mg/kg): 193 L/kg
COc1cc2c(Oc3ccc4[nH]c(C)cc4c3F)ccnc2cc1OCC1(N)CC1  grade 1 or 2 Hyperthyroidism (paediatric recurrent refractory sarcoma; 10 mg): 0%
N.N.[Cl][Pt][Cl]  blood urea nitrogen (mouse, serum; dose not given): 41.7 mg/dL and 32 mg/dL and 32.4 mg/dL
CN1CCN(S(=O)(=O)c2cc([N+](=O)[O-])ccc2N(CCOS(C)(=O)=O)CCOS(C)(=O)=O)CC1  concentration (NSG mice, brain; intraperitoneal, 5 mg/kg, 0.5 h): not detected
NC(=O)[C@H]1CCN(c2ncnc(N)c2F)C[C@@H]1N1CCC[C@@H](Nc2cc(Cl)cc(C(F)(F)F)c2)C1=O  grade ≥3 platelet decrease (B-cell malignancy patients; oral, 246 mg twice daily, dose): 0%
CC(C)C[C@H](NC(=O)[C@H](CCCCN)NC(=O)OCC1c2ccccc2-c2ccccc21)C(=O)N[C@H](C(=O)N[C@@H](Cc1ccccc1)C(=O)N[C@@H](Cc1ccccc1)C(=O)N[C@@H](CCCCN)C(=O)NCC(=O)N[C@@H](Cc1ccccc1)C(=O)N[C@@H](C)C(=O)N[C@@H](Cc1c[nH]c2ccccc12)C(=O)N[C@@H](CC(N)=O)C(=O)N[C@H](C(=O)N[C@H]1CSSC[C@@H](C(=O)N[C@@H](Cc2c[nH]cn2)C(=O)N[C@@H](CCCNC(=N)N)C(=O)N[C@@H](CCCNC(=N)N)C(=O)N[C@@H](C)C(=O)N[C@@H](CC(N)=O)C(N)=O)NC(=O)[C@H](C(C)C)NC(=O)[C@H](CCCNC(=N)N)NC(=O)[C@H](C(C)C)NC(=O)CNC(=O)[C@H](CC(N)=O)NC(=O)[C@H](CCCNC(=N)N)NC(=O)[C@H](Cc2ccc(O)cc2)NC(=O)[C@H](C(C)C)NC1=O)C(C)C)C(C)C  MCH (ICR mouse, blood; intramammary, 5 mg/kg, day 5, 3 d dosing): 13.3 ± 0.29 pg
Cc1c(COC(=O)[C@@H]2[C@H](/C=C(\Cl)C(F)(F)F)C2(C)C)cccc1-c1ccccc1 (racemic)  enzyme contribution to clearance (measured: CYP2C19; human, age 6 months, recombinant human CYP2C19; 0.1 µM): 46.8%
CCC[C@@](N)(CO)CCc1ccc(OCCCCCC(C)C)cc1  AUC(0-inf) (dog, male hounds, plasma; oral capsule, 20 mg/kg, geometric mean): 22.8 µM·h
COc1ccnc(C(=O)N[C@H]2COC(=O)[C@H](Cc3ccccc3)[C@@H](OC(=O)C(C)C)[C@H](C)OC2=O)c1OCOC(=O)C(C)C  DT50 (field soil, loam; normalised, southern France): 7.8 days
